Measurements pooled from the literature.
Each line is one published result; not all experiments were run side by side.
B1: EFR3B 716-787 (Homo sapiens, UniProt Q9Y2G0); chain VPAEEITYETLKKAIVDSVAVEEQERERRRQVVEKFQKAPFEEIAAHCGARASLLQSKLNQIFEITIRPPPS
B2: dnaA/forked oriC DNA ATP-bound (Escherichia coli); sequence looked up; chain MSLSLWQQCLARLQDELPATEFSMWIRPLQAELSDNTLALYAPNRFVLDWVRDKYLNNINGLLTSFCGADAPQLRFEVGTKPVTQTPQAAVTSNVAAPAQVAQTQPQRAAPSTRSGWDNVPAPAEPTYRSNVNVKHTFDNFVEGKSNQLARAAARQVADNPGGAYNPLFLYGGTGLGKTHLLHAVGNGIMARKPNAKVVYMHSERFVQDMVKALQNNAIEEFKRYYRSVDALLIDDIQFFANKERSQEEFFHTFNALLEGNQQIILTSDRYPKEINGVEDRLKSRFGWGLTVAIEPPELETRVAILMKKADENDIRLPGEVAFFIAKRLRSNVRELEGALNRVIANANFTGRAITIDFVREALRDLLALQEKLVTIDNIQKTVAEYYKIKVADLLSKRRSRSVARPRQMAMALAKELTNHSLPEIGDAFGGRDHTTVLHACRKIEQLREESHDIKEDFSNLIRTLSS
B3: TFC6 1-672 (Saccharomyces cerevisiae, UniProt Q06339); chain MAVIPAKKRGRPRKSVVAEVPYDSLASPVSENSGSKRPRRNASKKAVANFAQLVHAGRDDVINTTQVNNVDDTDDDDFVLNDEGDGEESDNVEIEFENELESTKNEVADLNSSGSGASVRPSGRRNTVQKLRLKKNSTKNMKSSSPGSSLGQKGRPIRLLKDLSSARDKIERIYGLNKEKLLLLAKVKEGFETSVFDFPFKNIQPDSPYFVCLDPPCKKESAYNKVIGDKNRTVYHEINKTEFENMIKLRTKRLKLLIGEVDAEVSTGDKIEFPVLANGKRRGFIYNVGGLVTDIAWLNIEENTDIGKDIQYLAVAVSQYMDEPLNEHLEMFDKEKHSSCIQIFKMNTSTLHCVKVQTIVHSFGEVWDLKWHEGCHAPHLVGCLSFVSQEGTINFLEIIDNATDVHVFKMCEKPSLTLSLADSLITTFDFLSPTTVVCGFKNGFVAEFDLTDPEVPSFYDQVHDSYILSVSTAYSDFEDTVVSTVAVDGYFYIFNPKDIATTKTTVSRFRGSNLVPVVYCPQIYSYIYSDGASSLRAVPSRAAFAVHPLVSRETTITAIGVSRLHPMVLAGSADGSLIITNAARRLLHGIKNSSATQKSLRLWKWDYSIKDDKYRIDSSYEVYPLTVNDVSKAKIDAHGINITCTKWNETSAGGKCYAFSNSAGLLTLEYLS
B4: NOTCH4 276-511 (Homo sapiens, UniProt Q99466); sequence looked up; chain NPDNCVSHQCQNGGTCQDGLDTYTCLCPETWTGWDCSEDVDECETQGPPHCRNGGTCQNSAGSFHCVCVSGWGGTSCEENLDDCIAATCAPGSTCIDRVGSFSCLCPPGRTGLLCHLEDMCLSQPCHGDAQCSTNPLTGSTLCLCQPGYSGPTCHQDLDECLMAQQGPSPCEHGGSCLNTPGSFNCLCPPGYTGSRCEADHNECLSQPCHPGSTCLDLLATFHCLCPPGLEGQLCE
B5: SF3B1 454-1304 R625H (Homo sapiens, UniProt O75533); chain KSVNDQPSGNLPFLKPDDIQYFDKLLVDVDESTLSPEEQKERKIMKLLLKIKNGTPPMRKAALRQITDKAREFGAGPLFNQILPLLMSPTLEDQERHLLVKVIDRILYKLDDLVRPYVHKILVVIEPLLIDEDYYARVEGREIISNLAKAAGLATMISTMRPDIDNMDEYVHNTTARAFAVVASALGIPSLLPFLKAVCKSKKSWQARHTGIKIVQQIAILMGCAILPHLRSLVEIIEHGLVDEQQKVRTISALAIAALAEAATPYGIESFDSVLKPLWKGIRQHRGKGLAAFLKAIGYLIPLMDAEYANYYTREVMLILIREFQSPDEEMKKIVLKVVKQCCGTDGVEANYIKTEILPPFFKHFWQHRMALDRRNYRQLVDTTVELANKVGAAEIISRIVDDLKDEAEQYRKMVMETIEKIMGNLGAADIDHKLEEQLIDGILYAFQEQTTEDSVMLNGFGTVVNALGKRVKPYLPQICGTVLWRLNNKSAKVRQQAADLISRTAVVMKTCQEEKLMGHLGVVLYEYLGEEYPEVLGSILGALKAIVNVIGMHKMTPPIKDLLPRLTPILKNRHEKVQENCIDLVGRIADRGAEYVSAREWMRICFELLELLKAHKKAIRRATVNTFGYIAKAIGPHDVLATLLNNLKVQERQNRVCTTVAIAIVAETCSPFTVLPALMNEYRVPELNVQNGVLKSLSFLFEYIGEMGKDYIYAVTPLLEDALMDRDLVHRQTASAVVQHMSLGVYGFGCEDSLNHLLNYVWPNVFETSPHVIQAVMGALEGLRVAIGPCRMLQYCLQGLFHPARKVRDVYWKIYNSIYIGSQDALIAHYPRIYNDDKNTYIRYELDYIL
B6: PFD3 (Arabidopsis thaliana, UniProt P57741); sequence looked up; chain MSSSSPSGSGSDLTERRGIPAAKFIQDVETYLSQSGLDPNSALAFHQERLQQYKVVEMKLLAQQRDLQAKIPDIEKCLEVVATLEAKKGTGEALLADFEVSEGIYSRACIEDTDSVCLWLGANVMLEYSCEEASALLKNNLENAKASLEVLVADLQFLRDQVTVTQVTIARVYNWDVHQRRVKQVTPTAIAVADS
B7: MAPRE1 K174Q (Homo sapiens, UniProt Q15691); sequence looked up; chain MAVNVYSTSVTSDNLSRHDMLAWINESLQLNLTKIEQLCSGAAYCQFMDMLFPGSIALKKVKFQAKLEHEYIQNFKILQAGFKRMGVDKIIPVDKLVKGKFQDNFEFVQWFKKFFDANYDGKDYDPVAARQGQETAVAPSLVAPALNKPKKPLTSSSAAPQRPISTQRTAAAPQAGPGVVRKNPGVGNGDDEAAELMQQVNVLKLTVEDLEKERDFYFGKLRNIELICQENEGENDPVLQRIVDILYATDEGFVIPDEGGPQEEQEEY
B8: SEC61B/FDFT1 /378-end 2-59 L401C/S39C (Homo sapiens); chain PGPTPSGTNVGSSGRSPSKAVAARAAGSTVRQRKNASSGTRSAGRTTSAGTGGMWRFYSRSHYSPIYLSFVMLLAALSWQYCTTLSQVTEDYVQTGEH
B9: EIF3J/GST 103-258 (Homo sapiens); Alexa Fluor 546 label; sequence looked up; chain EEPKVLTPEEQLADKLRLKKLQEESDLELAKETFGVNNAVYGIDAMNPSSRDDFTEFGKLLKDKITQYEKSLYYASFLEVLVRDVCISLEIDDLKKITNSLTVLCSEKQKQEKQSKAKKKKKGVVPGGGLKATMKDDLADYGGYDGGYVQDYEDFM
UniProt P0AFG8, sequence (whole entry, looked up): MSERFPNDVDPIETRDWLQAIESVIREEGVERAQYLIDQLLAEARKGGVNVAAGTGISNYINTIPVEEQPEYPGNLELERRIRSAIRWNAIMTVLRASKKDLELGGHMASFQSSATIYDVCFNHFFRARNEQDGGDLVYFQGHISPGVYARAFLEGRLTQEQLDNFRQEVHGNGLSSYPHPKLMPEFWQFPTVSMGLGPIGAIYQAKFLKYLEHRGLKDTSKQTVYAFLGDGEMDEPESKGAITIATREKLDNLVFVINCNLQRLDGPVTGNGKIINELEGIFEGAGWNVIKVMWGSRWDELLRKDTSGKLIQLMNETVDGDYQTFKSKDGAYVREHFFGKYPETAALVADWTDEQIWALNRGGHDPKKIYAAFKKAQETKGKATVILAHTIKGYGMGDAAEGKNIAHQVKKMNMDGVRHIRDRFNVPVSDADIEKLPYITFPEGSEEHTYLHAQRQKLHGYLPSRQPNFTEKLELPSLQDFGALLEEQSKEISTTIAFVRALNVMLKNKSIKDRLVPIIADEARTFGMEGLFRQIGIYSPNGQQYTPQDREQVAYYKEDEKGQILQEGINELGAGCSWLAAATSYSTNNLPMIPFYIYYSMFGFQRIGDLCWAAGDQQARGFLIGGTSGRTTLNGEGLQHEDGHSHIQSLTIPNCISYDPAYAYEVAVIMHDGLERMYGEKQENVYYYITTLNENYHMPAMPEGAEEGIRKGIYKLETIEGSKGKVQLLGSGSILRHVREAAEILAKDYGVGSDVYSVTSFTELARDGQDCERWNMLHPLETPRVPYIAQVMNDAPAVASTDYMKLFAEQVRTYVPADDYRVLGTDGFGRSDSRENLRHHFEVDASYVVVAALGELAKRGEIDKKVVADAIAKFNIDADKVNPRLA
UniProt P34111, sequence (whole entry, looked up): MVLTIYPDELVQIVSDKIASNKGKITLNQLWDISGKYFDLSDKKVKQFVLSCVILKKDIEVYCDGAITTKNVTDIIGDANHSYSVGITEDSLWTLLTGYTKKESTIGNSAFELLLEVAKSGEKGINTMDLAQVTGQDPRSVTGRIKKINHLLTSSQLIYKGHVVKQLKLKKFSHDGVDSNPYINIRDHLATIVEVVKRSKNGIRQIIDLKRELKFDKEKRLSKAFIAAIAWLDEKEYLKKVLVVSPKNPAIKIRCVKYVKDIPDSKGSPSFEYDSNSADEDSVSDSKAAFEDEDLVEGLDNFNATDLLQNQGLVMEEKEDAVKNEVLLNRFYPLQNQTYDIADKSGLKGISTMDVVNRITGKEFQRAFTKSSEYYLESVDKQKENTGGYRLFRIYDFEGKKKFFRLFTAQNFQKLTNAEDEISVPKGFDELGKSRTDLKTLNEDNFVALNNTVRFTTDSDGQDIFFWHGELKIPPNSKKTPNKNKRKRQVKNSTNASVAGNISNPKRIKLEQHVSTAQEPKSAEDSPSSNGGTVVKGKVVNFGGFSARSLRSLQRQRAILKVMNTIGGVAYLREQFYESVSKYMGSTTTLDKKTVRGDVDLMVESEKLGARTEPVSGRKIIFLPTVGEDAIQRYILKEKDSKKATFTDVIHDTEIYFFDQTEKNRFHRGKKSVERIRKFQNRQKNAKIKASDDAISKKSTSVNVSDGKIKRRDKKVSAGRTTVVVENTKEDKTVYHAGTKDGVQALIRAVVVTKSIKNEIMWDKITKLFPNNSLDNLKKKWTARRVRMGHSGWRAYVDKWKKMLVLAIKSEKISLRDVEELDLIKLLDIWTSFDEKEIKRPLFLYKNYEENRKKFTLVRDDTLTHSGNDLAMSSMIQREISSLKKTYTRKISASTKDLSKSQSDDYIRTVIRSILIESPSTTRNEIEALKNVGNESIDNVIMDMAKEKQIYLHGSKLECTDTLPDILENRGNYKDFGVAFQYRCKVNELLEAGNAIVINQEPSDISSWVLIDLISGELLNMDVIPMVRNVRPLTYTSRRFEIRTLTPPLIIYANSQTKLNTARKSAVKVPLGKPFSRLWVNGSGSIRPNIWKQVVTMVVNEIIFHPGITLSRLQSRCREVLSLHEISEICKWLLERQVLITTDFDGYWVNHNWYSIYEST
UniProt Q00610, sequence (whole entry, unmodified, looked up): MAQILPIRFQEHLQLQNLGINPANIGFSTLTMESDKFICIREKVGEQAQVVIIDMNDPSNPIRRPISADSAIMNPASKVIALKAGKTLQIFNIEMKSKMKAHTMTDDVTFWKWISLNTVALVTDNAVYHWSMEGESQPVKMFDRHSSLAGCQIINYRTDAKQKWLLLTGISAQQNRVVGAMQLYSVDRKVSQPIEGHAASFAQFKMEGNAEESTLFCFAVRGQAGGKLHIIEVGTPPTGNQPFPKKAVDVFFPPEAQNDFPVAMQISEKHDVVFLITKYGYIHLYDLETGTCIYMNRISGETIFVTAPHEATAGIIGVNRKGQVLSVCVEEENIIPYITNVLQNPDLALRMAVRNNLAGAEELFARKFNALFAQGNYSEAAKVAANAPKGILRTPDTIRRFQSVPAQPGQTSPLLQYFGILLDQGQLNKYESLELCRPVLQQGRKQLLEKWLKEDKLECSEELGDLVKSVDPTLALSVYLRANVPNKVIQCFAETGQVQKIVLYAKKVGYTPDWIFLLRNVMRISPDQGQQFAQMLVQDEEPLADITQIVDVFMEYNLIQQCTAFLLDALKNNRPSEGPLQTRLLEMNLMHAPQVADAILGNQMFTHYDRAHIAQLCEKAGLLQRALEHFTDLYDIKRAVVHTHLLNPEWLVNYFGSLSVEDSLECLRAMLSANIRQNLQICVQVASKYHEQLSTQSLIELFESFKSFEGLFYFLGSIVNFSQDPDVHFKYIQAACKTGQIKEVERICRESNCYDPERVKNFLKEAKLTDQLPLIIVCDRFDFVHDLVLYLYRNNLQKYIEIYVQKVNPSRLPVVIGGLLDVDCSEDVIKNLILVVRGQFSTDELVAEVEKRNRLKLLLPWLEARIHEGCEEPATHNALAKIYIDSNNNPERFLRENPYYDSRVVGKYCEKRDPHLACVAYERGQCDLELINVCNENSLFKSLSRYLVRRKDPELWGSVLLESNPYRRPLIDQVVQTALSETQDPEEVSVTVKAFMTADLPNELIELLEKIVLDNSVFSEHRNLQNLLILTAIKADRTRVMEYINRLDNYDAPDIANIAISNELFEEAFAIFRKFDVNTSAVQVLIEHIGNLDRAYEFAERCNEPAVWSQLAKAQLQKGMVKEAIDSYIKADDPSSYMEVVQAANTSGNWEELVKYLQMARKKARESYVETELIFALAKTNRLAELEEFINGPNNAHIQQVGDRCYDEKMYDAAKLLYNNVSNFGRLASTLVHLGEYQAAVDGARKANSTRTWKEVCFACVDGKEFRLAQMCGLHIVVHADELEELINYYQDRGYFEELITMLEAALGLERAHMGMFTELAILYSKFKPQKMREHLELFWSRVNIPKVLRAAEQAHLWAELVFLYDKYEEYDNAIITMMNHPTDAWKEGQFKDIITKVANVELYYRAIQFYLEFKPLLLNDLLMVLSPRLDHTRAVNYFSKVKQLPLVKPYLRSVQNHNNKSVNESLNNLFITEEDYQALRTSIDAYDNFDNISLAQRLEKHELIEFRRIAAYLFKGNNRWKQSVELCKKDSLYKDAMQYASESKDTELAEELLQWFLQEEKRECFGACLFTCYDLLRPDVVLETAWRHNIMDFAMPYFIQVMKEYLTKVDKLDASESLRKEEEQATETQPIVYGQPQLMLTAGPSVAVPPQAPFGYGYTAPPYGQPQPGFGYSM
UniProt Q9BWJ5, sequence (whole entry, looked up): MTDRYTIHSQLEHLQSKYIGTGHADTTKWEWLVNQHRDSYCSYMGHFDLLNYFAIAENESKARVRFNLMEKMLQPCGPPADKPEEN
UniProt P60520, sequence (whole entry, looked up): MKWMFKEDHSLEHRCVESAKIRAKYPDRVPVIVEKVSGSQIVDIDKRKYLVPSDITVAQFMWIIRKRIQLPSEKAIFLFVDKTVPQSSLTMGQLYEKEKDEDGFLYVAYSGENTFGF
UniProt O95210, sequence (whole entry, looked up): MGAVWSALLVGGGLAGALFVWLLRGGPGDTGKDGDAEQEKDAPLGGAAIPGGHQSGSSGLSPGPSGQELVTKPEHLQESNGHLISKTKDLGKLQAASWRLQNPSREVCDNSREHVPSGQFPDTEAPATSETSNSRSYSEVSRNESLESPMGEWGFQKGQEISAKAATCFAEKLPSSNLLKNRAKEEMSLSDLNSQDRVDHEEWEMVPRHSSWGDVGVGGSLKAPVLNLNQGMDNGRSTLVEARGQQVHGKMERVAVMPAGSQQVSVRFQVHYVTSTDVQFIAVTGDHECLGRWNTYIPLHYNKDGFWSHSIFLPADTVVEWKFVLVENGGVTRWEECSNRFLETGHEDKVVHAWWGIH
UniProt Q9Z309, sequence (whole entry, looked up): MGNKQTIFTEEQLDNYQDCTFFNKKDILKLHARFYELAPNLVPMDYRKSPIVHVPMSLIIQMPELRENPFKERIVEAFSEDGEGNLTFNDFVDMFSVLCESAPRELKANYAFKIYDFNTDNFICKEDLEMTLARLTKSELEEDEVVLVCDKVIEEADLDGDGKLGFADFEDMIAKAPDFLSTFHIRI
UniProt Q9LY00, sequence (whole entry, looked up): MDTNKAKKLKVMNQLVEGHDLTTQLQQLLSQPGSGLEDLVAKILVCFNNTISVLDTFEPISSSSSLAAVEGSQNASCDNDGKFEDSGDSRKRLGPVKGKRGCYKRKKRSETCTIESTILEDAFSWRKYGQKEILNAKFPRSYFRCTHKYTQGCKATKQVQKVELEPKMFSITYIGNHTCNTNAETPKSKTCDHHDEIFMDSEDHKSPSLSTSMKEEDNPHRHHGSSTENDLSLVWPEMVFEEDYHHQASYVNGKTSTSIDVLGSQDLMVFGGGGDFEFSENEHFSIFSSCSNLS

Molecule	tested on	test	system	conditions	how to read	measurement	value
HEEWEMVPRHS (STBD1 200-210 (Homo sapiens, UniProt O95210))	Gamma-aminobutyric acid receptor-associated protein-like 2 (Homo sapiens, UniProt P60520)	SEC	–	–	–	binding	binds
ALB (Homo sapiens, UniProt P02768)	SLC27A1 (Homo sapiens, UniProt Q6PCB7)	cross-linking MS	–	added: DSSO	–	cross-linked residues	K161 to K49
LVLAMWKAGFFKRNR (ITGA2B cytoplasmic tail)	Cib2 (Mus musculus, UniProt Q9Z309)	ELISA	peptide	–	–	binding	binds
RAD9A (Homo sapiens, UniProt Q99638)	LIG1 233-919 (Homo sapiens, UniProt P18858)	pull-down	–	1 hr, 4 °C	–	binding	binds
cofilin-1, human	PP6C (human)	co-immunoprecipitation, IP-MS	CYB5R4 knockout cells	concentration not given	reference: CYB5R4 knockout over parental	log2 fold change	-0.23
B1 (EFR3B 716-787)	TTC7A/FAM126B 1-308	BLI	–	–	–	binding	binds
colistin	Escherichia coli	broth microdilution	clinical isolate RKI-No_592/16	–	–	MIC	≤ 0.5 mg/L
RASA2 (Homo sapiens, UniProt Q15283)	MAP3K4 (Homo sapiens, UniProt Q9Y6R4)	cross-linking MS	–	added: DSSO	–	cross-linked residues	K820 to K1342
B2 (dnaA/forked oriC DNA ATP-bound)	dnaB (Escherichia coli, UniProt P0ACB0)	pull-down	–	–	–	binding	binds
B3 (TFC6 1-672)	TFC3 1-1160 (Saccharomyces cerevisiae, UniProt P34111)	cryo-EM	–	–	–	binding	binds
B4 (NOTCH4 276-511)	DLL4 27-400 N257P/T271L/F280Y/S301R/Q305P (Homo sapiens, UniProt Q9NR61)	SPR	–	–	–	binding	binds
aceF (Escherichia coli, UniProt P06959)	aceE 2-887 (Escherichia coli, UniProt P0AFG8)	class averages, 2D, cryo-EM	–	–	–	binding	binds
KESALRKQDLLLQFDPLFR (TACC3 to 568 550-568 S558D/Y560L/K562Q/L567F (Homo sapiens, UniProt Q9Y6A5); sequence looked up)	CLTC 358-574 (Homo sapiens, UniProt Q00610)	peptide array	peptide	–	–	binding	binds
B5 (SF3B1 454-1304 R625H)	SF3B5 (Homo sapiens, UniProt Q9BWJ5)	cryo-EM	–	–	–	binding	binds
B6 (PFD3)	WRKY70 (Arabidopsis thaliana, UniProt Q9LY00)	pull-down	–	–	–	binding	binds
B7 (MAPRE1 K174Q)	MAPRE1 (Homo sapiens, UniProt Q15691)	pull-down	–	–	–	binding	binds
B8	EMC7 N-terminal ALFA tag M214C (Homo sapiens, UniProt Q9NPA0)	cross-linking	–	–	–	binding	binds
human NudC	CYB5R4 knockout human cells	PP6 interaction, 3xFLAG-PP6C IP-MS	–	concentration not given	reference: CYB5R4 KO over parental	log2 fold change	0.24
B9 (EIF3J/GST 103-258)	EIF3C 302-913 (Homo sapiens, UniProt Q99613)	EMSA	–	–	–	binding	binds

Excerpt of the above:
Molecule	tested on	test	system	conditions	how to read	measurement	value
B4 (NOTCH4 276-511)	DLL4 27-400 N257P/T271L/F280Y/S301R/Q305P (Homo sapiens, UniProt Q9NR61)	SPR	–	–	–	binding	binds
aceF (Escherichia coli, UniProt P06959)	aceE 2-887 (Escherichia coli, UniProt P0AFG8)	class averages, 2D, cryo-EM	–	–	–	binding	binds
